# Measurements collected from several papers.
# Lines come from different studies, so protocols differ. “And” joins repeats or separate records; there may be more than shown. ± gives the spread as reported.
SMILES,organism,assay,system,conditions,scale,measurement,value
Nc1ccn(C[C@@H](CO)OCP(=O)(O)OCCCS(=O)(=O)CCCCCCCCCCCCCC2CCC2)c(=O)n1,human alphaherpesvirus 2,,"HFF, G",,baseline: CC50 over EC50,selectivity index,> 14
Oc1ccc(C(F)(F)F)cc1-c1nc2c(Cl)cc(Cl)cc2[nH]1,Acinetobacter baumannii,colistin potentiator,"AB 1F9, colistin-resistant",5 µM,,colistin MIC,0.25 µg/mL
CC1N=C(CCCCCCCCCCC2=CC(CCCCCCCCCCC3=NC(C)C(O)CC3)C3CCCN3C2)CCC1O (stereo not shown),Leishmania donovani,,amastigotes in THP-1 macrophages,,,IC90,2.48 ± 0.62 µg/mL
CC(=O)[O-].F[P-](F)(F)(F)(F)F.[Co+2].c1ccc(CN2CCCNCCN(Cc3ccccc3)CCCNCC2)cc1,Leishmania donovani,,"THP-1-derived macrophages, intracellular amastigotes",,,IC50,> 15 µM
O=S(=O)(CCC(F)(F)F)N[C@H]1CC[C@H](Nc2ncc3c(-c4ccccn4)n[nH]c3n2)CC1,Leishmania donovani,,LdBOB drug-selected resistant clones,promastigotes,baseline: wild type,resistance fold,> 500 fold
CC(C)C[C@H](NC(=O)[C@H](CC(=O)O)NC(=O)[C@H](Cc1ccc(O)cc1)NC(=O)[C@H](Cc1ccccc1)NC(=O)[C@H](CS)NC(=O)[C@@H]1CCCN1C(=O)[C@H](CCCNC(=N)N)NC(=O)[C@H](CC(N)=O)NC(=O)[C@@H](NC(=O)[C@H](CCCNC(=N)N)NC(=O)[C@H](CS)NC(=O)[C@@H](N)[C@@H](C)O)[C@@H](C)O)C(=O)N[C@@H](CC(=O)O)C(=O)N[C@@H](CC(C)C)C(=O)N[C@@H](CC(N)=O)C(=O)N[C@H](C(=O)N[C@@H](CS)C(=O)N[C@@H](CCCNC(=N)N)C(=O)N[C@@H](CS)C(=O)N[C@@H](CO)C(=O)O)C(C)C,"Escherichia coli, Acinetobacter baumannii, Pseudomonas aeruginosa",,,,,MBC,128 µM
CC[C@H](C)[C@H](NC(=O)CNC(=O)[C@H](CO)NC(=O)[C@H](CC(C)C)NC(=O)[C@@H](N)Cc1ccccc1)C(=O)N[C@H](C(=O)NCC(=O)N[C@@H](CCSC)C(=O)N[C@@H](CC(C)C)C(=O)NCC(=O)N[C@@H](CCCCN)C(=O)N[C@@H](CC(C)C)C(=O)N[C@@H](Cc1ccccc1)C(N)=O)C(C)C,Leishmania mexicana,"intracellular amastigote growth, Giemsa staining",infected macrophages,48 h,,IC50,6.7 µM and 6.73 µM
CC(=O)[O-].CN1CCN2CCN(CC1)CCN(Cc1ccccc1)CC2.F[P-](F)(F)(F)(F)F.[Cu+2],Leishmania donovani,"parasite growth, resazurin",,"72 h, promastigote",,IC50,> 20 µM
COc1cc(-c2ccc3oc(-c4ccsc4)c(C#CC4(O)CCCCC4)c3c2)cc(OC)c1OC,hepatitis C virus,HCV replicon replication,HCV genotype 1b subgenomic replicon cells,10 µM,baseline: DMSO,remaining activity,103%
CCn1c(-c2ccc(OC)cc2)c(-c2ccc(OC)cc2)n(CC)c1=[Se+][Au-][P+](CC)(CC)CC.[Cl-],Acinetobacter baumannii,,carbapenem-resistant,"10, 20, 40 µM, 2 h",baseline: untreated,malondialdehyde content,increased
[O-][N+]1=C(c2ccccc2)C2=NCCN2c2ccccc21,Bacteroides fragilis,microbial growth,ATCC25285,,,MIC,0.125 µg/mL
O=c1c(O)ccc(Br)cc1O,Acinetobacter baumannii,,multidrug-resistant Ab2,,,MIC80,19.8 µM
[Cl-].[Cl-].[Ni+2].c1ccc(CN2CCNCCN(Cc3ccccc3)CCNCC2)cc1,Leishmania donovani,parasite growth,THP-1 macrophages,intracellular amastigotes,,IC90,> 20 µM

# Repeated from above:
SMILES,organism,assay,system,conditions,scale,measurement,value
O=c1c(O)ccc(Br)cc1O,Acinetobacter baumannii,,multidrug-resistant Ab2,,,MIC80,19.8 µM
